{"data": "Assay results gathered from unrelated publications", "note": "Each numbered part is a random draw from the data of one study; scales do not carry over between parts.", "UniProt P31751, sequence (whole entry, looked up)": "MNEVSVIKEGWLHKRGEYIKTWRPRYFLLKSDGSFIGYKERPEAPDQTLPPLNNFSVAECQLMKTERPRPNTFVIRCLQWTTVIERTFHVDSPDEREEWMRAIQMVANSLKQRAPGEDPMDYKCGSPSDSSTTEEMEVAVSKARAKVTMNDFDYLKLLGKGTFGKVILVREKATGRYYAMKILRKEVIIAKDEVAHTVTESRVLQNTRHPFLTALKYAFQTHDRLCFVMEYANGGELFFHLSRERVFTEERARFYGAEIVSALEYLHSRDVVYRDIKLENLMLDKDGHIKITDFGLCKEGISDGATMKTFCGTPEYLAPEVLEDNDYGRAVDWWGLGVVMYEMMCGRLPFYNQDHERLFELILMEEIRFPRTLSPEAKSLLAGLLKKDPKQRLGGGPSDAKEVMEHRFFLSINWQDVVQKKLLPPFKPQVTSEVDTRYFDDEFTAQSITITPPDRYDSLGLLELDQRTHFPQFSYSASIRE", "UniProt P50750, sequence (whole entry, looked up)": "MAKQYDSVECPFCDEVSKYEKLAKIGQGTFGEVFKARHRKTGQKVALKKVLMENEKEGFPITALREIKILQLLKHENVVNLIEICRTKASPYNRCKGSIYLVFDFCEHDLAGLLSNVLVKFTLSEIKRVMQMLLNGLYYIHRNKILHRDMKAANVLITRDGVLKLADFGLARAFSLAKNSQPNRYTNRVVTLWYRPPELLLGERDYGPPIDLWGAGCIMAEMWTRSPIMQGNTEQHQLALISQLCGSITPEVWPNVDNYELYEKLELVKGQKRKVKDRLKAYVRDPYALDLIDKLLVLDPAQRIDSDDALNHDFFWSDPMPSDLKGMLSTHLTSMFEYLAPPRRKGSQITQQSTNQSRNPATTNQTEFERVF", "UniProt P42681, sequence (whole entry, looked up)": "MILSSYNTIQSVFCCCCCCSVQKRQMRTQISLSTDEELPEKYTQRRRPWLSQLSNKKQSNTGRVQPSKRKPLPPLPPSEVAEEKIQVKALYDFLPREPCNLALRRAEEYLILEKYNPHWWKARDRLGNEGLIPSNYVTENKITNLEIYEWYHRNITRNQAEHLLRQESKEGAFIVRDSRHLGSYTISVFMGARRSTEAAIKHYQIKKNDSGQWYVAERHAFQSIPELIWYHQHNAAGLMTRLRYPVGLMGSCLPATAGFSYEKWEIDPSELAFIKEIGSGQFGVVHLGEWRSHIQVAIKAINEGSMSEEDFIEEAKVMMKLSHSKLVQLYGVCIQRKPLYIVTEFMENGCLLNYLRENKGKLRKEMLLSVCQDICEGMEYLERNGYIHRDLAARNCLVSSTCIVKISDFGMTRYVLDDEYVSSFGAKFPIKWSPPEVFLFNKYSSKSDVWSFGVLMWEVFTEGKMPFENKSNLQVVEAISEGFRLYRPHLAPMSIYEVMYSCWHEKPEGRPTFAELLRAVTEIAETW", "UniProt Q16539, sequence (whole entry, looked up)": "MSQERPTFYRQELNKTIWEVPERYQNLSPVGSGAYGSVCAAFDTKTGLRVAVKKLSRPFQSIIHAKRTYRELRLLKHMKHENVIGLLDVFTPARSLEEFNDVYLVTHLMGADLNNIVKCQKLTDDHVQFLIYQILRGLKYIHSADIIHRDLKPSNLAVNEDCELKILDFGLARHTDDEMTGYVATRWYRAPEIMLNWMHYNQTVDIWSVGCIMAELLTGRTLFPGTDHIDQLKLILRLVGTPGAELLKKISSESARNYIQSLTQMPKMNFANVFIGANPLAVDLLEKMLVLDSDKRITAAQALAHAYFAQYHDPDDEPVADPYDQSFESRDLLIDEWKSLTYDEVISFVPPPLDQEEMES", "UniProt P51956, sequence (whole entry, looked up)": "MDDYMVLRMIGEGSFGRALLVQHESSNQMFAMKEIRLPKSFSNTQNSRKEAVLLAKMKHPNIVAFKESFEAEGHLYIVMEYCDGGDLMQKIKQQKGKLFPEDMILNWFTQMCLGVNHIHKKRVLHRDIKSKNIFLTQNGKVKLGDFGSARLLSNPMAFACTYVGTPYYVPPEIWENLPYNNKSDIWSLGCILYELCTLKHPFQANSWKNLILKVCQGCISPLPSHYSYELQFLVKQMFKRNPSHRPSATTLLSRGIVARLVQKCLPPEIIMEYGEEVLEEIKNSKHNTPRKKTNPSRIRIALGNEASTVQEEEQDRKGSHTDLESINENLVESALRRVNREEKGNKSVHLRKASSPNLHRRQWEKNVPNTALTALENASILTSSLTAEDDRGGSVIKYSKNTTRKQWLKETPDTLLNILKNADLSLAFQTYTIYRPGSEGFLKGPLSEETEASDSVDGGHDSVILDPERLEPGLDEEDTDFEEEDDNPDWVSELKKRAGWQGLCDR", "UniProt Q9HAZ1, sequence (whole entry, looked up)": "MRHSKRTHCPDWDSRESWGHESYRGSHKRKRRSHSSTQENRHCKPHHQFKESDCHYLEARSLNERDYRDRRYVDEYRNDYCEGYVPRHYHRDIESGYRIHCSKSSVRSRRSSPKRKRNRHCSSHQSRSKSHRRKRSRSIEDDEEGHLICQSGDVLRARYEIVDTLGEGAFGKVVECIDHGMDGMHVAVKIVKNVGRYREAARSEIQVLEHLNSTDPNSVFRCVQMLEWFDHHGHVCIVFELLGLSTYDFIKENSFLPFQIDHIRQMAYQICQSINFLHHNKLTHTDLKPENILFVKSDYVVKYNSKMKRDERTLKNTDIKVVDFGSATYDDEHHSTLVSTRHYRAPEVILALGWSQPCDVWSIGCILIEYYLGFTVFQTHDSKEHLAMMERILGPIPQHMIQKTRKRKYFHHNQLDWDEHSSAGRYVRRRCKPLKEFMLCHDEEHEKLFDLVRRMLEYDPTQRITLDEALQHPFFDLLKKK", "UniProt Q6P2M8, sequence (whole entry, looked up)": "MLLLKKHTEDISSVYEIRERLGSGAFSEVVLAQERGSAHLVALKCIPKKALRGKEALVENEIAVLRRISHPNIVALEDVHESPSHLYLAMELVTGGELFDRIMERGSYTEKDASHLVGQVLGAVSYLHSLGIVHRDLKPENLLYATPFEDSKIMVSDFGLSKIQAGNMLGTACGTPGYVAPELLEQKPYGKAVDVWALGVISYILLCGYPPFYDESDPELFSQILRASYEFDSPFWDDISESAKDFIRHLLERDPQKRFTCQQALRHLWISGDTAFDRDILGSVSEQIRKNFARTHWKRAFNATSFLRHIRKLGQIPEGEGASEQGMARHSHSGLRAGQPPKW", "UniProt P49761, sequence (whole entry, looked up)": "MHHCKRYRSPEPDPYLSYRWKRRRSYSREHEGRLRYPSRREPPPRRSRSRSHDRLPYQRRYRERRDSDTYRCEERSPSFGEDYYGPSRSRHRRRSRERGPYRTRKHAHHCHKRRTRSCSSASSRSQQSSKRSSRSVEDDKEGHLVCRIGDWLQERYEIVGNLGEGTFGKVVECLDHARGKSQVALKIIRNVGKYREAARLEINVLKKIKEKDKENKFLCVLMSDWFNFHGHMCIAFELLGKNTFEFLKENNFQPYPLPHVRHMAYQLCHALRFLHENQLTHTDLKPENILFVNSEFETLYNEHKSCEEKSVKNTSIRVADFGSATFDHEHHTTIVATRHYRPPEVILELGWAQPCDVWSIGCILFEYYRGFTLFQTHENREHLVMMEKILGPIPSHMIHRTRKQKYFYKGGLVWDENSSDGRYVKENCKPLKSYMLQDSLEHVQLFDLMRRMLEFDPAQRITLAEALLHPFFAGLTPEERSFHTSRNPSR", "UniProt P00519, sequence (whole entry, unmodified, looked up)": "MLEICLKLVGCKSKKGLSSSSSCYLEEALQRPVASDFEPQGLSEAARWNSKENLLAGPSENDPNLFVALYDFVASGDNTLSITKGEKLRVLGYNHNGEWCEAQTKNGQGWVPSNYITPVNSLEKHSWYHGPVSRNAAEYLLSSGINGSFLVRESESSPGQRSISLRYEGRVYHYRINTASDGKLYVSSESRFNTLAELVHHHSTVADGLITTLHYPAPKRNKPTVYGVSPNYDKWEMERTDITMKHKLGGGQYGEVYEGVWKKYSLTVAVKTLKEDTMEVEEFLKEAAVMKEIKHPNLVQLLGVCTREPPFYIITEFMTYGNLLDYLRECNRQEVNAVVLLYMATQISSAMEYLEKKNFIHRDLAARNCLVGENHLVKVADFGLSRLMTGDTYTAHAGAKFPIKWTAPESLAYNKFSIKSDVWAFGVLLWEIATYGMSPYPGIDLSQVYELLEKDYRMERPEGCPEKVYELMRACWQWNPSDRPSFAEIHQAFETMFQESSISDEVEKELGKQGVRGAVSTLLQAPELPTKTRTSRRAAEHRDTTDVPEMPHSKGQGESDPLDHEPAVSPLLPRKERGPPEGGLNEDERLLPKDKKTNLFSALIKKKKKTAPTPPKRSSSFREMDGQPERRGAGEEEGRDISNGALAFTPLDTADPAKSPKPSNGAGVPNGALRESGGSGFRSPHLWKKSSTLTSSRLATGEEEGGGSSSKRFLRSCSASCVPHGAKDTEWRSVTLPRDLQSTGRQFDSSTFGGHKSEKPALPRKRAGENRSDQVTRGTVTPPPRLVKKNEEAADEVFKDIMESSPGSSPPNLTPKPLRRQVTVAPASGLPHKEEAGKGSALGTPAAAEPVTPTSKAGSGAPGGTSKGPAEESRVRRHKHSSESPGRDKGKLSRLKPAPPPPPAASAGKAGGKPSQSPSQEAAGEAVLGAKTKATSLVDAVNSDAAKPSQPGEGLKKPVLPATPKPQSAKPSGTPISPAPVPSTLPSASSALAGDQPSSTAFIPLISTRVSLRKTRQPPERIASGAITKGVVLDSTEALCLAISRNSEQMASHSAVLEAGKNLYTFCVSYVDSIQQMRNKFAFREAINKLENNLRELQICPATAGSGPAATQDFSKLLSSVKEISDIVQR"}
{"data": "Set 1", "target": "RING finger protein unkempt homolog, zinc fingers 1-6, GST-SBP tag (UNK, Homo sapiens, UniProt Q9C0B0, residues 30-357)", "method": "RNA Bind-n-Seq", "molecule type": "RNA", "matrix": "in vitro", "tested at": "not given", "notes": "RNA with constant flanks, human and mouse sites, ends assumed", "relative to": "input RNA pool", "direction": "higher = stronger binding", "all sequences stand within": "GGGAGUUCUACAGUCCGACGAUC … CAACAGAGGAUUGAGCAUCA", "Residues (chain)": "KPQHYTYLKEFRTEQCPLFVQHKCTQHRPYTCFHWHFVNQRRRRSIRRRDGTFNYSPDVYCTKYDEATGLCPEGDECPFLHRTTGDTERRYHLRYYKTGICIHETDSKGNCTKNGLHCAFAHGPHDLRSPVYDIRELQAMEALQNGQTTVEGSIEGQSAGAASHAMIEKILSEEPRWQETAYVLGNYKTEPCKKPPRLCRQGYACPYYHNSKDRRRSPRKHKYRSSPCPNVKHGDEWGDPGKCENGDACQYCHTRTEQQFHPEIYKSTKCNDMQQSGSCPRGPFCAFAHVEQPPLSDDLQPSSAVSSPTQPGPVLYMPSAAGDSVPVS"}
{"Sequence": "UGUGGCCUCUCUGAAGAAAAAGCCGUAGAGAAAUUUGGGGAAGAAAAUAUUGAAGUUUACCAUAGUUUCUUUUGGCCAUUGGAAUGGACAGUCCCAUCCCGGGAUAACAACAAAUGUUAU", "bound/input enrichment": "0.168 ratio"}
{"Sequence": "UCCAGCCGGUGUGAAGAGGAGACCCCUUCCCUCUUGUGGGGUUUGGAUCCUGUGUUUCUAGCCUUUGCAAAACUCUACAUCAGGGAUAUCCUGGACAUGAAGGAGUCCCGCCAGGUGCCA", "bound/input enrichment": "0.114 ratio"}
{"Sequence": "GUAUUUAAUGUUGAAGUUGUUGCUGUUUCAUCCAUUCAUACACAAGACCCUUAUCUAGACAAAUUCUUUGCUCUUGUCAAUGCUCUGGAUGAACACAUGUUCCCGGUCCGAAUUGGGGAC", "bound/input enrichment": "2.46 ratio"}
{"Sequence": "GCUGAGGGAAUAAAUUUAAUCAAGGUCUUUGCAAAAACAGAAGCACAGAAGGGAGCCUAUAUAGAACUAACACUGCAGACUUAUCAAGAAGCACUCAGUCGCCAUUCUGCAGCUUCCUAA", "bound/input enrichment": "0.427 ratio"}
{"Sequence": "GACUCUUUUGGAACACAGUUACCACCGAUGCAUCAGCAGCAAAGAUCUGUAAUGACAGAAGAAUACAAAGUUCCAGAUGGAAUGGUUGGAUUCAUAAUUGGCAGAGGAGGUGAACAGAUC", "bound/input enrichment": "0.205 ratio"}
{"Sequence": "GCAAGAUUUCUGACAAUGUGCAAUAGACACUUUGGCAGCGUUAUUGCACAAACUAUUCGGACUCAAAAGACAGAUCAGUUUCCACUUUUCCUGAUUAUCAUGGGAAAGCGAUCAUCUAAU", "bound/input enrichment": "0.101 ratio"}
{"Sequence": "CAGAUGGUCACCAGCUCUCAGAGCUGCACACAGCUGCUCUAGGGGAAAUGACCCAGAGCUUAGCUCACUGUAGAGGAAUGUCCUUGGCGGAAUAGGAGAUAAGAGAAAACUCCAAUCUGA", "bound/input enrichment": "0.0938 ratio"}
{"Sequence": "ACGCCAAAGCCACUUCGAAGUAGUGCUGACCCUGCACUCAAUCAAGAAGUUGCAUUAAAAUUAGAACCAAAUCCAGAGUCACUGGAACUUUCUUUUACCAUGCCCCAGAUUCAGGAUCAG", "bound/input enrichment": "0.456 ratio"}
{"data": "Set 2", "Compound": "O=c1cc(-c2cccc3c2Sc2ccccc2S3)oc(N2CCOCC2)c1", "observed": "enzyme activity", "mode": "inhibitor", "tested at": "0.5 µM", "relative to": "control"}
{"target": "Dual specificity protein kinase CLK3 (CLK3, Homo sapiens, UniProt P49761)", "remaining activity [%]": 121}
{"target": "Calcium/calmodulin-dependent protein kinase type 1B (PNCK, Homo sapiens, UniProt Q6P2M8)", "remaining activity [%]": 109}
{"target": "Dual specificity protein kinase CLK4 (CLK4, Homo sapiens, UniProt Q9HAZ1)", "remaining activity [%]": 101}
{"target": "Tyrosine-protein kinase TXK (TXK, Homo sapiens, UniProt P42681)", "remaining activity [%]": 106}
{"target": "Cyclin-dependent kinase 9, with cyclin K (CDK9, Homo sapiens, UniProt P50750)", "remaining activity [%]": 109}
{"target": "RAC-beta serine/threonine-protein kinase (AKT2, Homo sapiens, UniProt P31751)", "remaining activity [%]": 96}
{"target": "Rho-associated protein kinase 1 (ROCK1, Homo sapiens, UniProt Q13464)", "remaining activity [%]": 101}
{"target": "Calcium/calmodulin-dependent protein kinase type IV (CAMK4, Homo sapiens, UniProt Q16566)", "remaining activity [%]": 94}
{"target": "Misshapen-like kinase 1 (MINK1, Homo sapiens, UniProt Q8N4C8)", "remaining activity [%]": 100}
{"target": "Ribosomal protein S6 kinase alpha-4 (RPS6KA4, Homo sapiens, UniProt O75676)", "remaining activity [%]": 88.1}
{"target": "Mitogen-activated protein kinase 14 (MAPK14, Homo sapiens, UniProt Q16539)", "remaining activity [%]": 99.3}
{"target": "Serine/threonine-protein kinase Nek3 (NEK3, Homo sapiens, UniProt P51956)", "remaining activity [%]": 102}
{"data": "Set 3", "target": "Sox-I, HMG box (Salpingoeca helianthica)", "method": "Spec-seq", "molecule type": "double-stranded DNA, one strand shown", "matrix": "in vitro", "tested at": "not given", "notes": "whole probe, mean of replicates", "relative to": "not given", "direction": "lower = stronger binding", "all sequences stand within": "GAGTCGTCTCGTCAGCAC … CCGTAGAGCACTCAGGTC", "Residues (chain)": "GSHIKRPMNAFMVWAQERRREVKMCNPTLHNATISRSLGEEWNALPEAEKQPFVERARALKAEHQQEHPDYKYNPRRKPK"}
{"Sequence": "CATATCT", "relative binding energy": "0.538 ln ratio"}
{"Sequence": "AAACGTT", "relative binding energy": "-0.374 ln ratio"}
{"Sequence": "CATTCAA", "relative binding energy": "0.242 ln ratio"}
{"Sequence": "GGAGGTT", "relative binding energy": "1.18 ln ratio"}
{"Sequence": "CATTGTA", "relative binding energy": "-1.98 ln ratio"}
{"Sequence": "CATAAGC", "relative binding energy": "0.501 ln ratio"}
{"Sequence": "CAAGGTT", "relative binding energy": "0.852 ln ratio"}
{"Sequence": "TTAGGTT", "relative binding energy": "0.668 ln ratio"}
{"data": "Other studies, line by line"}
{"Structure (SMILES)": "C[C@H](NC(=O)Nc1cc2[nH]ncc2c(CO)n1)c1ccccn1", "target": "Tyrosine-protein kinase ABL1, phosphorylated (ABL1, Homo sapiens, UniProt P00519, F317I)", "observed": "binding", "tested at": "1 µM", "measurement": "remaining binding", "value": "100%"}
{"note": "Some of these lines once more (set 1):"}
{"Sequence": "UCCAGCCGGUGUGAAGAGGAGACCCCUUCCCUCUUGUGGGGUUUGGAUCCUGUGUUUCUAGCCUUUGCAAAACUCUACAUCAGGGAUAUCCUGGACAUGAAGGAGUCCCGCCAGGUGCCA", "bound/input enrichment": "0.114 ratio"}
{"Sequence": "GUAUUUAAUGUUGAAGUUGUUGCUGUUUCAUCCAUUCAUACACAAGACCCUUAUCUAGACAAAUUCUUUGCUCUUGUCAAUGCUCUGGAUGAACACAUGUUCCCGGUCCGAAUUGGGGAC", "bound/input enrichment": "2.46 ratio"}
